Experimental data collected from several papers.
Protocols differ between the studies behind these lines. ± gives the spread as reported.

For `CC[C@H](C)[C@H](NC(=O)[C@H](CCCCN)NC(=O)CNC(=O)[C@H](CC(C)C)NC(=O)[C@@H](NC(=O)[C@H](C)NC(=O)[C@H](CCCCN)NC(=O)CNC(=O)[C@H](C)NC(=O)CNC(=O)[C@H](CCCCN)NC(=O)[C@H](CCSC)NC(=O)[C@H](CCCCN)NC(=O)[C@@H](NC(=O)[C@H](Cc1c[nH]c2ccccc12)NC(=O)[C@H](CC(C)C)NC(=O)[C@H](CCC(=O)O)NC(=O)[C@H](CCCCN)NC(=O)[C@H](CC(C)C)NC(=O)[C@@H](N)CC(C)C)[C@@H](C)O)C(C)C)C(=O)N[C@@H](CCCCN)C(=O)NCC(=O)N[C@@H](CC(C)C)C(=O)N[C@@H](CC(C)C)C(=O)O`, the Stern-Volmer constant was 3.18 ± 1.27 M⁻¹ (acrylamide quenching; PC:cholesterol vesicles, 250 µM lipid; 2 µM, added: acrylamide).
`C=Cc1cc(O)cc2nc(-c3ccc(O)c([76Br])c3)oc12` has a tissue uptake of 1.06 ± 0.38 %ID/g (female C57BL/6 mouse, kidney; 1 h, low dose).
For `COc1ccc(C)cc1NC(=O)OC1CC2CCCC(C1)N2Cc1ccc(CC[18F])cc1` (stereo not shown), the tracer uptake was 0.93 %ID/g (mouse, blood; 1 h, tumour-bearing).
With `CSCC[C@H](NC(=O)CNC(=O)[C@H](CC(=O)O)NC(=O)[C@@H](NC(=O)[C@@H](NC(=O)[C@@H](NC(=O)CNC(=O)[C@H](CCC(N)=O)NC(=O)[C@H](CCSC)NC(=O)[C@H](CC(=O)O)NC(=O)[C@H](C)NC(=O)[C@H](C)NC(=O)[C@@H](NC(=O)[C@H](CO)NC(=O)[C@@H](N)CC(C)C)[C@@H](C)O)C(C)C)C(C)C)[C@@H](C)O)C(=O)N[C@@H](C)C(=O)N[C@@H](CO)C(=O)NCC(=O)N[C@@H](CC(C)C)C(=O)N[C@@H](CC(=O)O)C(=O)N[C@@H](CCCCN)C(=O)N[C@@H](CC(=O)O)C(=O)N[C@@H](Cc1ccc(O)cc1)C(=O)N[C@@H](CC(C)C)C(=O)N[C@@H](CCCCN)C(=O)N1CCC[C@H]1C(=O)N[C@@H](CC(=O)O)C(=O)N[C@@H](CC(=O)O)C(=O)O` the Vd was 0.431 L/kg (human, serum; intravenous, 4.16 mg/kg, patients, infusion).
For `O=P([O-])([O-])Oc1ccc(-c2cc(=S)ss2)cc1.[Na+].[Na+]`, the solubility was 1543 ± 4.45 µg/mL (HPLC; 0.9% NaCl; 48 h, pH 7.4, 25 °C).
For `CC(CCC(=O)NCC(=O)O)C1CCC2C3C(O)CC4CC(OC5OC(C(=O)O)C(O)C(O)C5O)CCC4(C)C3CCC12C` (stereo not shown), “ratio of metabolic ratios” read 6.83 (measured: glucuronide to parent ratio; human, plasma; dose not given, sex-adjusted; reference: C/C over T/T).
`c1ccc(C2(CCNC3CCC4(SCCS4)c4ccccc43)CCOC3(CCCC3)C2)nc1` (stereo not shown) has an AUC(0-24 h) of 59.7 ng·h/mL (mouse; intravenous, 0.3 mg/kg).
With `N=C(N)NCc1ccc(C(=O)NCCCC[C@H](NC(=O)N[C@@H](CCC(=O)O)C(=O)O)C(=O)O)cc1[131I]` the tissue uptake was 0.38 ± 0.26 %ID/g (SCID mouse, PC-3 xenografts, liver; 14 h).
`O=c1c(Br)c2oc3c(CN(Cc4ccccn4)Cc4ccccn4)c(O)ccc3nc-2c2ccccc12` has an excitation maximum of 530 nm (aqueous buffer; pH 7.0, metal-free).
For `CCCC[C@H]1C(=O)N(C)[C@@H](CCCC)C(=O)N[C@@H](CCCNC(=O)CN2CCN(CC(=O)O)CCN(CC(=O)O)CCN(CC(=O)O)CC2)C(=O)N[C@H](C(=O)NCC(N)=O)CSCC(=O)N[C@@H](Cc2ccc(O)cc2)C(=O)N(C)[C@@H](C)C(=O)N[C@@H](CC(N)=O)C(=O)N2CCC[C@H]2C(=O)N[C@@H](Cc2c[nH]cn2)C(=O)N[C@@H](CC(C)C)C(=O)N(C)CC(=O)N[C@@H](Cc2c[nH]c3ccccc23)C(=O)N[C@@H](CO)C(=O)N[C@@H](Cc2c[nH]c3ccccc23)C(=O)N1C` [gallium-68 labelled], the tumour uptake was 3.2 ± 0.17 %ID/g (static PET; NOD/SCID mice, CHO-hPD-L1 xenograft, CHO-hPD-L1 tumour; intravenous, 1 h post injection, after two atezolizumab treatments, added: atezolizumab 10 mg/kg).
With `CCCCCCCC(=O)OC[C@H](NC(=O)[C@H](CO)NC(=O)CN)C(=O)N[C@@H](Cc1ccccc1)C(=O)N[C@@H](CC(C)C)C(=O)N[C@@H](CO)C(=O)N1CCC[C@H]1C(=O)N[C@@H](CCC(=O)O)C(=O)N[C@@H](Cc1cnc[nH]1)C(=O)N[C@@H](CCC(N)=O)C(=O)N[C@@H](CCCNC(=N)N)C(=O)N[C@H](C(=O)N[C@@H](CCC(N)=O)C(=O)N[C@@H](CCC(N)=O)C(=O)N[C@@H](CCCNC(=N)N)C(=O)N[C@@H](CCCCN)C(=O)N[C@@H](CCC(=O)O)C(=O)N[C@@H](CO)C(=O)N[C@@H](CCCCN)C(=O)N[C@@H](CCCCN)C(=O)N1CCC[C@H]1C(=O)N1CCC[C@H]1C(=O)N[C@@H](C)C(=O)N[C@@H](CCCCN)C(=O)N[C@@H](CC(C)C)C(=O)N[C@@H](CCC(N)=O)C(=O)N1CCC[C@H]1C(=O)N[C@@H](CCCNC(=N)N)C(=O)O)C(C)C` the clearance was 5.73 ± 0.91 mL/min/kg (human, both sexes, plasma; intravenous infusion, 3 µg/kg/h, 65 min infusion).
The half-life of `CC(=CCC(O)C(C)=Cc1csc(C)n1)CC=CC(C)C(O)C(C)C(=O)C(C)(C)C(O)CC(=O)O` (stereo not shown) is reported as 44 ± 15.9 h (human, plasma; intravenous infusion, 11.3 mg/m2 KOS-1584, 3 h infusion, cycle 1).
`C=C1C(=O)OC2C1CCC(Cn1cc(-c3cc(C(F)(F)F)cc(C(F)(F)F)c3)nn1)=C1CCC(C)(O)C12` (stereo not shown): “LSK cell number” “no effect” (flow cytometry; mouse, bone marrow; dose not given).
With `COc1cc2ccnc(Cc3ccc(O[11CH3])c(OC)c3)c2cc1OC` the liver uptake was about 32 % injected dose (Sprague-Dawley rat; intravenous, 5 min).
For `CN(C)C(CNC(=O)Nc1cc(C(F)(F)F)ccc1N1CCOCC1)c1ccncc1` (stereo not shown), the serum GGT was 7 U/L (mouse, serum; intraperitoneal, 360 mg/kg single dose).
For `CC[C@H](C)[C@H](NC(=O)CN)C(=O)NCC(=O)N[C@@H](C)C(=O)N[C@H](C(=O)N[C@@H](CC(C)C)C(=O)N[C@@H](CCCCN)C(=O)N[C@H](C(=O)N[C@@H](CC(C)C)C(=O)N[C@H](C(=O)N[C@H](C(=O)NCC(=O)N[C@@H](CC(C)C)C(=O)N1CCC[C@H]1C(=O)N[C@@H](C)C(=O)N[C@@H](CC(C)C)C(=O)N[C@H](C(=O)N[C@@H](CO)C(=O)N[C@@H](Cc1c[nH]c2ccccc12)C(=O)N[C@H](C(=O)N[C@@H](CCCCN)C(=O)N[C@@H](CCCNC(=N)N)C(=O)N[C@@H](CCCCN)C(=O)N[C@@H](CCCNC(=N)N)C(=O)N[C@@H](CCC(N)=O)C(=O)N[C@@H](CCC(N)=O)C(N)=O)[C@@H](C)CC)[C@@H](C)CC)[C@@H](C)O)[C@@H](C)O)C(C)C)C(C)C`, the LD100 was about 3 mg/kg (BALB/c mouse; iv, single dose).
`CC(C)C[C@@H](NC(=O)[C@@H](Cc1ccccc1)NC(=O)[C@H](N)Cc1ccccc1)C(=O)N[C@H](CCCCN)C(=O)N1CCC(N)(C(=O)O)CC1`: “volume of distribution” 0.155 L/kg (human, plasma; intravenous, 5 µg/kg).
For `CCCCCCCC/C=C\CCCCCCCCOP(O)(O)=S.N`, the CL/F was 14.5 mL/min/kg (mouse, female, nonirradiated; subcutaneous, single dose).
The tumour-to-tissue ratio of `COc1cc(C(=O)NCCOCCOCCOCCNC(=O)c2ccc([18F])nc2)ccc1NC(=O)C1NC(CC(C)(C)C)C(C#N)(c2ccc(Cl)cc2F)C1c1cccc(Cl)c1F` (stereo not shown) is reported as 1.29 ± 0.45 (athymic male mice, SJSA-1 xenograft; 2 h; reference: tumour over muscle).
For `CC[C@H](C)[C@H](NC(=O)[C@H](CCC(=O)O)NC(=O)[C@H](CCC(=O)O)NC(=O)[C@H](Cc1ccccc1)NC(=O)[C@H](CC(=O)O)NC(=O)CNC(=O)[C@H](CC(N)=O)NC(=O)CNC(=O)CNC(=O)CNC(=O)CNC(=O)[C@@H]1CCCN1C(=O)[C@H](CCCNC(=N)N)NC(=O)[C@@H]1CCCN1C(=O)[C@H](N)Cc1ccccc1)C(=O)N1CCC[C@H]1C(=O)N[C@@H](CCC(=O)O)C(=O)N[C@@H](CCC(=O)O)C(=O)N[C@@H](Cc1ccc(O)cc1)C(=O)N[C@@H](CC(C)C)C(=O)O`, the concentration was 243 ± 8.1 ng/mL (LC-MS/MS; human plasma; 4 h, 25 °C, stability, nominal 240.0 ng/mL).
`COCCOCCOCCOc1ccc(/C=C/c2c(I)c(C)c3n2[B-](F)(F)[N+]2=C(C)C(I)=C(C)C2=C3c2cc(OC)cc(OC)c2)cc1` — result for “fluorescence quantum yield”: 0.52 (DMSO; reference: methylene blue).
`CC[C@@H]1C[C@]1(NC(=O)[C@@H]1C[C@@]2(CN1C(=O)[C@@H](NC(=O)[C@@H](NC(=O)[C@@H]1CCCCN1C(C)C)C1CCCCC1)C(C)(C)C)C(C)(C)C21CCC1)C(=O)NS(=O)(=O)N1CCCC1` — result for “subjects with nausea”: 0% (healthy human; oral, 30 mg single dose).
For `CSCC[C@H](NC(=O)[C@H](Cc1c[nH]c2ccccc12)NC(=O)CNC(=O)[C@H](Cc1ccc(O)cc1)NC(=O)[C@H](C)NC(=O)[C@H](CCC(=O)O)NC(=O)[C@H](Cc1c[nH]cn1)NC(=O)[C@H](Cc1c[nH]cn1)NC(=O)[C@H](Cc1c[nH]cn1)NC(=O)[C@H](Cc1c[nH]cn1)NC(=O)[C@H](Cc1c[nH]cn1)NC(=O)[C@H](Cc1c[nH]cn1)NC(=O)CN1CCN(CC(=O)O)CCN(CC(=O)O)CCN(CC(=O)O)CC1)C(=O)N[C@@H](CC(=O)O)C(=O)N[C@@H](Cc1ccccc1)C(N)=O`, the tumour-to-kidney ratio was 0.2 (MF1 nude mouse, male, AR-42J xenograft; intravenous, 0.2 µg, 4 h, 111In-labelled; reference: tumour over kidney).
`CC(C)C[C@H]1NC(=O)[C@H](NC(=O)CN)CSSC[C@H]2NC(=O)[C@H]3CSSC[C@H](C(=O)N[C@H](CC(N)=O)C(=O)N[C@H](Cc4ccccc4)C(=O)N[C@H](CO)C(=O)N[C@H](Cc4ccccc4)C(N)=O)NC(=O)[C@@H](CC(C)C)NC(=O)[C@@H](CCCCN)NC(=O)[C@@H](Cc4ccccc4)NC(=O)[C@@H](CC(C)C)NC(=O)[C@@H](CCCCN)NC(=O)[C@@H](CO)NC(=O)[C@@H](CSSC[C@@H](NC(=O)[C@@H](CCCCN)NC(=O)[C@@H](Cc4c[nH]c5ccccc45)NC(=O)[C@@H](Cc4c[nH]c5ccccc45)NC(=O)[C@@H](Cc4ccccc4)NC(=O)[C@@H](CCC(=O)O)NC1=O)C(=O)N[C@H](CC(N)=O)C(=O)N1CCC[C@@H]1C(=O)N[C@H](CC(N)=O)C(=O)N[C@H](CC(=O)O)C(=O)N[C@H](CC(=O)O)C(=O)N[C@H](CCCCN)C(=O)N3)NC(=O)[C@@H](CCCCN)NC(=O)[C@@H](CC(C)C)NC(=O)[C@@H](CCCCN)NC(=O)[C@H]1CCCN1C(=O)[C@@H](CCCNC(=N)N)NC2=O` has a concentration of 12 to 19% (D2.mdx mice, all tissues; dose not given, two weeks after dosing stopped; reference: peak).
With `CC[C@H](C)C(=O)N1CCC(NC(=O)Nc2ccc(OC(F)(F)F)c(F)c2)CC1` the AUC(0-t) was 1310 ng·h/mL (human, plasma; oral, 8 mg, single dose, fasted).
Under “left ventricular output”, `COC(=O)C[C@H](NC(=O)[C@H](C)NC(=O)[C@@H](NC(=O)[C@H](CC(=O)OC)NC(=O)[C@@H](NC(=O)c1ccc2ccccc2n1)C(C)C)C(C)C)C(=O)COc1c(F)cccc1F` is recorded as 0.157 ± 0.015 mL/min (echography; rat pups; 1 mg/kg, 1 h).
`CN[C@](C)(C[18F])C(=O)O` gave a tissue uptake of 0.2 ± 0.03 %ID/g (SCID mouse DU-145 xenograft, brain; 60 min, post injection).
`CC(C)[C@H](NC(=O)CNC(=O)[C@H](CCC(N)=O)NC(=O)[C@H](C)N)C(=O)O`: “subjects with adverse events” 0% (Definitely drug-related; human; 30 mg/kg, 3 days, thrice daily dosing).

A few entries again:
`C=Cc1cc(O)cc2nc(-c3ccc(O)c([76Br])c3)oc12` has a tissue uptake of 1.06 ± 0.38 %ID/g (female C57BL/6 mouse, kidney; 1 h, low dose).
